Experimental data collected from several papers.
Several values in a cell are separate wells, animals, samples, runs or records. ± gives the spread as reported.
UniProt P10275, sequence (whole entry, looked up): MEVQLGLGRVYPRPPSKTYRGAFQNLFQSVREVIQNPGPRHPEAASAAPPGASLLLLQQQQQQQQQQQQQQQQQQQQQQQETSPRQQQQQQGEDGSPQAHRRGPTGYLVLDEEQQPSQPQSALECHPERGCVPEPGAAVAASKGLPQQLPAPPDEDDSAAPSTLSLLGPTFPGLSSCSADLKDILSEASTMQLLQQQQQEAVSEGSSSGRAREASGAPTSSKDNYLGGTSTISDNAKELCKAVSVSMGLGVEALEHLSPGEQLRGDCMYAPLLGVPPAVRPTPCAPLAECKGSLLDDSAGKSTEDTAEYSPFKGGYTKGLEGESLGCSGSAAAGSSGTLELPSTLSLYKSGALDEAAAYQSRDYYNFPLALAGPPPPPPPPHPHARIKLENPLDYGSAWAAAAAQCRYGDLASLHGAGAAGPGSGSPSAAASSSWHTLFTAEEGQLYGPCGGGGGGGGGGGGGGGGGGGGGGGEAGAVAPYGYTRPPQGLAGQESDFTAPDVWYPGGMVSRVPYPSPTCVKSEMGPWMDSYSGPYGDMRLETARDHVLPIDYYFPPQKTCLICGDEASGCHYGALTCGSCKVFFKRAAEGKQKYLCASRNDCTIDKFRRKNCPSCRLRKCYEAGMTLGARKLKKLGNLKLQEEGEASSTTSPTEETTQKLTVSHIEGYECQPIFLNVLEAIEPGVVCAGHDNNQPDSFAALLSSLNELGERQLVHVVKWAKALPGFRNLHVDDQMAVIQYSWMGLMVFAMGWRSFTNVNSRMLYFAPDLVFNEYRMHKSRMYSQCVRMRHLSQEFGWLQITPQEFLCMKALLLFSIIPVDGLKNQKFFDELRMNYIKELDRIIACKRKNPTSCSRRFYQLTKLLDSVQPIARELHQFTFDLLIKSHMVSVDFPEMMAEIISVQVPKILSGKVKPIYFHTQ
UniProt P43681, sequence (whole entry, looked up): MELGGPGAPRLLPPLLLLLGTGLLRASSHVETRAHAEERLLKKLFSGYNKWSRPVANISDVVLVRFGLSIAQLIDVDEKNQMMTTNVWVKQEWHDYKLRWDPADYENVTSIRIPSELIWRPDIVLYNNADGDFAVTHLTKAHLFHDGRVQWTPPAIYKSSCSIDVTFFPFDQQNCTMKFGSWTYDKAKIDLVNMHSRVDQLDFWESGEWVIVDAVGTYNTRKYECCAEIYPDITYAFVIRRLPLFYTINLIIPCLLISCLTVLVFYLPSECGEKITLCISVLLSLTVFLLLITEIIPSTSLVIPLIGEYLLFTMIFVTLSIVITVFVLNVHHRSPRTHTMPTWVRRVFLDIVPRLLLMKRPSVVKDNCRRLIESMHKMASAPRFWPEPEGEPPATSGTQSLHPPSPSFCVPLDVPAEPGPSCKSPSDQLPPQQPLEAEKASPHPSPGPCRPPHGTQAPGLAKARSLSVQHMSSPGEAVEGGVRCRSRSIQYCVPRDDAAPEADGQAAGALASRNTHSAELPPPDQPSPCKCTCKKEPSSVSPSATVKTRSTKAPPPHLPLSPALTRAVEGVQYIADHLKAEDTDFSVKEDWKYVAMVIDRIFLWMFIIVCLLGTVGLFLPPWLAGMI
UniProt Q9UNU6, sequence (whole entry, looked up): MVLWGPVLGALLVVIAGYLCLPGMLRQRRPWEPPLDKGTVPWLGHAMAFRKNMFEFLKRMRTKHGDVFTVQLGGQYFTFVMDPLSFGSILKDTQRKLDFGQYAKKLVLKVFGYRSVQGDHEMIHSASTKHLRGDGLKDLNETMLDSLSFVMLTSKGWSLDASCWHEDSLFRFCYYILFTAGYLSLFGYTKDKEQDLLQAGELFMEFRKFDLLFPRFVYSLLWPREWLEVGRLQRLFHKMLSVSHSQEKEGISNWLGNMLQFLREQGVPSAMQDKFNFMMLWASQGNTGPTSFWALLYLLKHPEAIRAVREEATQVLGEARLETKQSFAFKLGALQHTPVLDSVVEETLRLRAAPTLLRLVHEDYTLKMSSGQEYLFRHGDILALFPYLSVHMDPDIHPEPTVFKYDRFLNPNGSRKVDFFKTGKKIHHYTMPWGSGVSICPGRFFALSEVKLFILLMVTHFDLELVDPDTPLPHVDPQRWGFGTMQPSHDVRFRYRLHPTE
UniProt Q99683, sequence (whole entry, looked up): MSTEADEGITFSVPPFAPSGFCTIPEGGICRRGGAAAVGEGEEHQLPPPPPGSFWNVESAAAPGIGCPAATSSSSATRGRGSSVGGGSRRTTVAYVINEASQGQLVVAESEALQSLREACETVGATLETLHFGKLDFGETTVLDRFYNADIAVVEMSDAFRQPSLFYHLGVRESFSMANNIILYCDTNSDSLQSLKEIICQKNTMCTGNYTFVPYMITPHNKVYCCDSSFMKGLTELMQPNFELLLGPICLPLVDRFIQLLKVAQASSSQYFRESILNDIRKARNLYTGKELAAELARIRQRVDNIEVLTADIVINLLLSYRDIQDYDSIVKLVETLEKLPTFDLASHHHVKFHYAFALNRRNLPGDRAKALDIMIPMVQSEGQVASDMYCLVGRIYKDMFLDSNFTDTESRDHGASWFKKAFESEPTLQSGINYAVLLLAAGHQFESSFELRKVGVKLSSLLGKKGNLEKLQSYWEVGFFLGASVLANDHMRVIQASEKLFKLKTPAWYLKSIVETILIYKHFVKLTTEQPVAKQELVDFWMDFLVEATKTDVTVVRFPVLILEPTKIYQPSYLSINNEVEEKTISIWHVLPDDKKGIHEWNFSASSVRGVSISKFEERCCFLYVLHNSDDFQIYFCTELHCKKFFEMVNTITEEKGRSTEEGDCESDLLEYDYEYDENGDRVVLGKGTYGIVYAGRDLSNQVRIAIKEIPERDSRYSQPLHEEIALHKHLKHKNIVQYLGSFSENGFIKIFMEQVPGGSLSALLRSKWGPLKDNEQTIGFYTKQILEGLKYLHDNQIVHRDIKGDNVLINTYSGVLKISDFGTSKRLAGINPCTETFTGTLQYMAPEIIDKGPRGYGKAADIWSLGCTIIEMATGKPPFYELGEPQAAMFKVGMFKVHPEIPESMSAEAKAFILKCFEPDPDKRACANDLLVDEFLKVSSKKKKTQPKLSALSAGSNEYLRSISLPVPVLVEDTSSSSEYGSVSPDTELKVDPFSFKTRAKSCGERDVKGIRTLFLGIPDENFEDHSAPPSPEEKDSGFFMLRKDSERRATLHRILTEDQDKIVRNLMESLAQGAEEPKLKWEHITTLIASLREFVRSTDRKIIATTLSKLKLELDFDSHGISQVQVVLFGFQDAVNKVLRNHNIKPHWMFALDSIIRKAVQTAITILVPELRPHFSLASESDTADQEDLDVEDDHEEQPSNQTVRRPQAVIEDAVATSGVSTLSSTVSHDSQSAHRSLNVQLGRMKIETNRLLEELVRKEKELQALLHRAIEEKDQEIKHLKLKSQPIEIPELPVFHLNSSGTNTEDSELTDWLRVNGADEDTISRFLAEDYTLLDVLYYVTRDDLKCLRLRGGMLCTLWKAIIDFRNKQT
UniProt P17787, sequence (whole entry, looked up): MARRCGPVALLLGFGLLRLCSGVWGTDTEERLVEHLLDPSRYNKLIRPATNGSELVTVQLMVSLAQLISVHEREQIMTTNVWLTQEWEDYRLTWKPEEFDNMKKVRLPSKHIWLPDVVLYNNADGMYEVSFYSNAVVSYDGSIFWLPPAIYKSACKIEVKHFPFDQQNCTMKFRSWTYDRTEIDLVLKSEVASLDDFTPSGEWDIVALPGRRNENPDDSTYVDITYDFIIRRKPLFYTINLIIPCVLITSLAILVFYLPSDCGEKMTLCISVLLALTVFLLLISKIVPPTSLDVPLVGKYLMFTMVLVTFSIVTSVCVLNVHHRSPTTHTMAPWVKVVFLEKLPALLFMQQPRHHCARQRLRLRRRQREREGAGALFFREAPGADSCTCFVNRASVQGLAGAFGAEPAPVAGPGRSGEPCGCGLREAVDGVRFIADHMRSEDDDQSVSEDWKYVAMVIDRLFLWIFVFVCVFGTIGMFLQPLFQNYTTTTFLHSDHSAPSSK
UniProt P20273, sequence (whole entry, unmodified, looked up): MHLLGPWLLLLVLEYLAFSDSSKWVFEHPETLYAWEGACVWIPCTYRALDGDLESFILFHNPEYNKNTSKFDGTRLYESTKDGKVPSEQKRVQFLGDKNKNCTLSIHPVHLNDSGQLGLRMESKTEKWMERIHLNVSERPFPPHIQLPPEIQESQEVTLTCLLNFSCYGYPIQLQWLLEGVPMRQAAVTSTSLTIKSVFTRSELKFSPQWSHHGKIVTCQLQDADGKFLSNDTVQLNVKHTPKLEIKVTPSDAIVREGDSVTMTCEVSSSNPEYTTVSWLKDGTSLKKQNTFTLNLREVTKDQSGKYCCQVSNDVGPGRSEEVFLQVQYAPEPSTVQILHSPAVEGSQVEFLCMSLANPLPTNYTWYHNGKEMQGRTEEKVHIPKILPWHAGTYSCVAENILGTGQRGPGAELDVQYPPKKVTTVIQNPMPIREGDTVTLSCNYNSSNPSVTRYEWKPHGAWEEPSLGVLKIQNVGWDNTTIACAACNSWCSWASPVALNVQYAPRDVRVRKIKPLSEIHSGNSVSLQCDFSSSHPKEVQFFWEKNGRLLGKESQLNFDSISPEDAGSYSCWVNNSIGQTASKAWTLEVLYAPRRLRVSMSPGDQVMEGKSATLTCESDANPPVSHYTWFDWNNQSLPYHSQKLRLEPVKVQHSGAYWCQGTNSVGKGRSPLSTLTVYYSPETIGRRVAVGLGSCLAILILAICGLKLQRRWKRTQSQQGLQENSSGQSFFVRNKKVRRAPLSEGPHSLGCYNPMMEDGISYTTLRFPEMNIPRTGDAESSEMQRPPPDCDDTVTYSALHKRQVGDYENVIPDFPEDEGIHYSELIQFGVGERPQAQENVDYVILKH

SMILES	target	test	system	conditions	how to read	measurement	result
CCc1nnc(-c2c(OC)cc(-c3cnc4cc(-c5cnn(C)c5)ccn34)cc2OC)o1	Neuronal acetylcholine receptor; alpha4/beta2 (Homo sapiens, UniProt P17787+P43681)	radioligand binding		10 µM		inhibition of specific binding	-4%
CC(C)[C@H]1NC(=O)C[C@H]2/C=C/CCSSC[C@@H](NC1=O)C(=O)N[C@H](Cc1cccc3ccccc13)C(=O)NCC(=O)O2	Dual specificity mitogen-activated protein kinase kinase 3 (MAP2K3, Homo sapiens, UniProt P46734)	enzyme activity, inhibitor		10 µM		inhibition	1.2%
CC(=O)N[C@H](C(=O)N[C@@H](CCCNC(=N)N)C(=O)NCC(=O)N[C@@H](CO)C(=O)N[C@@H](CS)C(=O)N[C@@H](CCCNC(=N)N)C(=O)N[C@@H](CCCCN)C(=O)N[C@@H](CCCNC(=N)N)C(=O)N[C@@H](CC(N)=O)C(=O)N[C@@H](CCCNC(=N)N)C(=O)N[C@@H](CO)C(=O)N1CCC[C@H]1C(=O)N[C@@H](CCC(=O)O)C(=O)N[C@@H](CCCNC(=N)N)C(N)=O)[C@@H](C)O	WD repeat-containing protein 5 (WDR5, Homo sapiens, UniProt P61964)	isothermal titration calorimetry		concentration not given, pH 7.0, 20 °C		binding stoichiometry	2.14
O=C(O)c1ccc(-c2nc(-c3ccccc3Cl)c3sccn23)cc1	Androgen receptor (AR, Homo sapiens, UniProt P10275)	radioligand binding, safety screen panel		10 µM	baseline: control	specific binding	112% and 128%
C[C@@]12C(=O)CC[C@H]1[C@@H]1CC=C3C[C@@H](O)CC[C@]3(C)[C@H]1C=C2c1cccnc1	7-alpha-hydroxycholest-4-en-3-one 12-alpha-hydroxylase (Homo sapiens, UniProt Q9UNU6)	inhibitor		80 µM, with: 7α-hydroxycholest-4-en-3-one 0.5 µM		remaining activity	93.7 ± 2.04%
O=C1NC(=O)c2c1c1cc(F)c[n+]3c1c1c2c2cc(O)ccc2[n]1[Ru-4]312([N]=C=S)[S+]3CC[S+]1CC[S+]2CC3 (stereo not shown)	Dual specificity protein kinase CLK2 (CLK2, Homo sapiens, UniProt P49760)	enzyme activity		100 nM, human enzyme, with: 10 µM ATP	baseline: untreated	remaining activity	1%
CN(C)[C@H]1C[C@@]23CC[C@@]4(O2)C(=CC[C@]2(C)[C@@H](c5ccc6ccncc6c5)CC[C@H]24)C=C3[C@@H](O)[C@@H]1O	Mitogen-activated protein kinase kinase kinase 5 (MAP3K5, Homo sapiens, UniProt Q99683)	ATP probe labelling, inhibitor, KiNativ profiling		1 µM		inhibition	18.5%
CCCCC1CNCCN1CC1CCCN1CC(CC1CCCCC1)N1CCN(CCCC2CCCC2)C(Cc2ccc(O)cc2)C1 (stereo not shown)	Delta-type opioid receptor (Oprd1, Rattus norvegicus, UniProt P33533)	radioligand binding	rat brain membranes	500 nM, pH 7.5, 25 °C, with: 2 nM [3H]DPDPE		remaining binding	88.5%
C=C(c1ccccc1)[C@@H](N)P(=O)(O)O	PAL1 (Petroselinum crispum, UniProt P24481)	L-Phe deamination, inhibitor, UV steady-state kinetics		50 µM, with: L-Phe 1 mM		reaction rate reduction	2%
CS(C)(=O)=Nc1ccc(-c2ccc(-c3nc4cc(O[C@@H]5CO[C@H]6[C@@H]5OC[C@H]6O)[nH]c4cc3F)cc2)cc1	Progesterone receptor (PGR, Homo sapiens, UniProt P06401)	calcium signal, antagonist		10 µM		inhibition	11%
O=C(N[C@@H]1c2ccccc2C[C@H]1N1CCCC1)c1ccc(-c2ccnc3[nH]ccc23)nc1	cGMP-dependent protein kinase 1 (PRKG1, Homo sapiens, UniProt Q13976)	binding, competition with immobilised ligand		3 µM		remaining binding	3.1%
O=C(CF)N[C@H]1[C@H]([C@H](O)[C@H](O)CNC(=O)c2ccc(Oc3ccccc3)cc2)O[C@@](OCc2cccc(Cl)c2Cl)(C(=O)O)C[C@@H]1O	B-cell receptor CD22 (CD22, Homo sapiens, UniProt P20273)	isothermal titration calorimetry				-TΔS	0.33 ± 0.07 kcal/mol
CCOC(=O)[C@@H]1Cc2c(cc([N+](=O)[O-])cc2[N+](=O)[O-])[C@H](O)[C@]12C(=O)Nc1ccc(Br)cc12	Wee1-like protein kinase (WEE1, Homo sapiens, UniProt P30291)	binding, competition with immobilised ligand		0.1 µM		remaining binding	78%
